Measurements of several laboratories.
Lines come from different studies, so protocols differ. Several values in a cell are separate wells, animals, samples, runs or records. Numbers after ± are the reported error. In brackets after ≈: the same amount, converted by molar mass.
Organism: Staphylococcus aureus

| SMILES | assay | test system | setting | how to read | measurement | result |
| --- | --- | --- | --- | --- | --- | --- |
| Cc1c2c(nn1C)CSCc1cc(n(C)n1)CSc1cc(c3ccccc3c1)OCCCc1c(C(=O)O)n(C)c3c-2c(Cl)ccc13 | crystal violet staining | MSSA and MRSA clinical isolates | 1/2 x MIC, 24 h | – | biofilm inhibition | ~80% |
| COc1cc(-c2oc3cc(O)cc(O)c3c(=O)c2O)ccc1O | bacterial growth | ATCC 29213 | 24 h | – | IC50 | > 100 µM |
| NC[C@H]1O[C@H](O[C@H]2[C@H](O)[C@@H](O[C@H]3O[C@H](CO)[C@@H](O)[C@H](N)[C@H]3O)[C@H](N)C[C@@H]2N)[C@H](O)[C@@H](O)[C@@H]1O | – | – | concentration not given, 0.2 mg/mL | – | growth inhibition | 82% |
| O=C1/C(=C/c2ccc(O)cc2O)NC(=S)N1c1ccccc1 | – | ATCC 6538 | concentration not given | – | inhibition zone diameter | 12 ± 0.3 mm |
| CC(=O)NC[C@H]1CN(c2ccc(N3CCOCC3)c(F)c2)C(=O)O1 | broth microdilution | vancomycin-resistant VRS11a | – | – | MBC | 32 µM |
| CN[C@H](CC(C)C)C(=O)N[C@H]1C(=O)N[C@@H](CC(N)=O)C(=O)N[C@H]2C(=O)N[C@H]3C(=O)N[C@H](C(=O)N[C@H](C(=O)O)c4cc(O)cc(O)c4-c4cc3ccc4O)[C@H](O)c3ccc(c(Cl)c3)Oc3cc2cc(c3O[C@@H]2O[C@H](CO)[C@@H](O)[C@H](O)[C@H]2O[C@H]2C[C@](C)(N)[C@H](O)[C@H](C)O2)Oc2ccc(cc2Cl)[C@H]1O | broth microdilution | methicillin-susceptible isolates | – | – | MIC50 | 1 µg/mL (≈ 0.69 µM) |
| CCCCCCCCCC(=O)N[C@@H](Cc1c[nH]c2ccccc12)C(=O)N[C@H](CC(N)=O)C(=O)N[C@@H](CC(=O)O)C(=O)N[C@@H]1C(=O)NCC(=O)N[C@@H](CCCN)C(=O)N[C@@H](CC(=O)O)C(=O)N[C@H](C)C(=O)N[C@@H](CC(=O)O)C(=O)NCC(=O)N[C@H](CO)C(=O)N[C@@H]([C@H](C)CC(=O)O)C(=O)N[C@@H](CC(=O)c2ccccc2N)C(=O)O[C@@H]1C | XTT, preformed biofilm | ATCC BAA-1556, MRSA | 2 × MIC, 24 h | – | biofilm mass reduction | ~49% |
| O=C(NCCc1ccccc1)C1COC2(CCCCC2)OC1 | crystal violet staining | – | 500 µg/mL, 24 h | relative to: untreated | residual biofilm | 17 ± 5% |
| CCCCCCCCCCCC(=O)N[C@H](CO)C(=O)N[C@@H]1C(=O)N[C@H](CCN)C(=O)N[C@@H](CC(=O)O)C(=O)NCC(=O)N[C@H](CC(N)=O)C(=O)N[C@H](CC(=O)O)C(=O)NCC(=O)N[C@@H](Cc2ccc(O)cc2)C(=O)N[C@@H](C(C)C)C(=O)N[C@@H](CCN)C(=O)N[C@@H](Cc2ccccc2)C(=O)O[C@@H]1C | – | USA300 | concentration not given, compound to lipid molar ratios 0 and 5, with: undecaprenyl pyrophosphate | – | antibacterial activity | decreased |
| CC1(C)OCC(C(=O)NCc2ccccc2)O1 (stereo not shown) | crystal violet staining | – | 500 µg/mL, 24 h | relative to: untreated | residual biofilm | 34 ± 8% |
| O=C(O)c1ccc(-n2cc(CNc3ccc(Cl)c(C(F)(F)F)c3)c(-c3cccc(F)c3)n2)cc1 | membrane permeabilisation, flow cytometry | ATCC 700699 | 1 x MIC, 30 min | – | PI-stained cells | 22% |
| O=C1C[C@@H](c2ccc(O)cc2)Oc2cc(O)cc(O)c21 | bacterial growth | ATCC 29213 | 24 h | – | IC50 | > 100 µM |
| C#CCCCCCCCCCCCC(O)CC(O)CO (stereo not shown) | growth | ATCC 33591 methicillin-resistant | – | – | IC50 | 86.4 µg/mL |
| CCC[C@@H]1C[C@@H](C(=O)N[C@@H]([C@H]2O[C@H](SC)[C@H](O)[C@@H](O)[C@H]2O)[C@H](C)Cl)N(C)C1 | – | CGMCC 1.9 | concentration not given, 18 h, 37 °C | – | inhibition zone diameter | 13 mm |
| Cc1ccc(C[C@H](NC(=O)[C@@H](Cc2ccccc2)NC(=O)[C@@H](Cc2c[nH]c3ccccc23)NC(=O)[C@@H](N)CCCN)C(=O)N[C@H](Cc2ccccc2)C(=O)N[C@H](CCCCN)C(N)=O)cc1 | bacterial growth | ATCC 29213 | – | – | IC50 | > 20 µg/mL |
| O=C(O)/C=C/c1ccc(O)c(O)c1 | bacterial growth | ATCC 29213 | 24 h | – | IC50 | > 100 µM |
| O=C(NCc1ccccc1)C1COC2(CCCCC2)OC1 | crystal violet staining | – | 500 µg/mL, 24 h | relative to: untreated | residual biofilm | 45 ± 12% |

| SMILES | assay | test system | setting | how to read | measurement | result |
| --- | --- | --- | --- | --- | --- | --- |
| OC[C@H]1O[C@@H](Oc2cc3c(O)cc(O)cc3[o+]c2-c2ccc(O)c(O)c2)[C@H](O[C@@H]2OC[C@@H](O)[C@H](O)[C@H]2O)[C@@H](O)[C@@H]1O | bacterial growth | ATCC 29213 | 24 h | – | IC50 | 16.8 µM |
| CCn1cc(C(=O)O)c(=O)c2cc(F)c(N3CCNCC3)cc21 | broth microdilution | MRSA NCTC 12493 | – | – | MBC | 2 µM |
| O=C(O)CN(CCN(CC(=O)O)CC(=O)O)CC(=O)O | – | MRSA 1707 | 24 h | – | MBC | > 2000 µM |
| COc1cc(-c2[o+]c3cc(O)cc(O)c3cc2O[C@@H]2O[C@H](CO)[C@@H](O)[C@H](O)[C@H]2O)ccc1O | bacterial growth | ATCC 29213 | 24 h | – | IC50 | 28.7 µM |
| CN[C@H](CC(C)C)C(=O)N[C@H]1C(=O)N[C@@H](CC(N)=O)C(=O)N[C@H]2C(=O)N[C@H]3C(=O)N[C@H](C(=O)N[C@H](C(=O)O)c4cc(O)cc(O)c4-c4cc3ccc4O)[C@H](O)c3ccc(c(Cl)c3)Oc3cc2cc(c3O[C@@H]2O[C@H](CO)[C@@H](O)[C@H](O)[C@H]2O[C@H]2C[C@](C)(N)[C@H](O)[C@H](C)O2)Oc2ccc(cc2Cl)[C@H]1O | – | MSSA, 67 strains | – | – | MIC90 | 2 µg/mL (≈ 1.38 µM) |
| CN[C@H](CC(C)C)C(=O)N[C@H]1C(=O)N[C@@H](CC(N)=O)C(=O)N[C@H]2C(=O)N[C@H]3C(=O)N[C@H](C(=O)N[C@H](C(=O)O)c4cc(O)cc(O)c4-c4cc3ccc4O)[C@H](O)c3ccc(c(Cl)c3)Oc3cc2cc(c3O[C@@H]2O[C@H](CO)[C@@H](O)[C@H](O)[C@H]2O[C@H]2C[C@](C)(N)[C@H](O)[C@H](C)O2)Oc2ccc(cc2Cl)[C@H]1O | – | ATCC 25904 | 20 h | – | MBC | 1.95 µg/mL |
| CCCCCCCCCC(=O)N[C@@H](Cc1c[nH]c2ccccc12)C(=O)N[C@H](CC(N)=O)C(=O)N[C@@H](CC(=O)O)C(=O)N[C@@H]1C(=O)NCC(=O)N[C@@H](CCCN)C(=O)N[C@@H](CC(=O)O)C(=O)N[C@H](C)C(=O)N[C@@H](CC(=O)O)C(=O)NCC(=O)N[C@H](CO)C(=O)N[C@@H]([C@H](C)CC(=O)O)C(=O)N[C@@H](CC(=O)c2ccccc2N)C(=O)O[C@@H]1C | Calgary biofilm device | MRSA BAA-1707 | – | – | MBC | 125 µM |
| O=C(O)c1ccc(-n2cc(CNc3cc(Br)cc(C(F)(F)F)c3)c(-c3ccc(F)c(F)c3)n2)cc1 | – | ATCC 700699, MRSA | 4 × MIC | – | time to kill below detection | ≤ 10 h |
| O=C1/C(=C/c2ccc([N+](=O)[O-])cc2[N+](=O)[O-])NC(=S)N1c1ccccc1 | – | ATCC 6538 | concentration not given | – | inhibition zone diameter | 14 ± 0.53 mm |
| CN(C)[C@@H]1C(O)=C(C(N)=O)C(=O)[C@@]2(O)C(O)=C3C(=O)c4c(O)cccc4[C@@](C)(O)[C@H]3C[C@@H]12 | – | CGMCC 1.9 | concentration not given, 18 h, 37 °C | – | inhibition zone diameter | 17.5 mm |
| CN[C@H](CC(C)C)C(=O)N[C@H]1C(=O)N[C@@H](CC(N)=O)C(=O)N[C@H]2C(=O)N[C@H]3C(=O)N[C@H](C(=O)N[C@H](C(=O)O)c4cc(O)cc(O)c4-c4cc3ccc4O)[C@H](O)c3ccc(c(Cl)c3)Oc3cc2cc(c3O[C@@H]2O[C@H](CO)[C@@H](O)[C@H](O)[C@H]2O[C@H]2C[C@](C)(N)[C@H](O)[C@H](C)O2)Oc2ccc(cc2Cl)[C@H]1O | – | MRSA, neutropenic mouse thigh infection | dose not given | – | bacterial load in thigh | 6.51 log CFU and 6.38 log CFU and 6.2 log CFU and 4.6 log CFU and 7.13 log CFU and 5.94 log CFU |
| CN[C@H](CC(C)C)C(=O)N[C@H]1C(=O)N[C@@H](CC(N)=O)C(=O)N[C@H]2C(=O)N[C@H]3C(=O)N[C@H](C(=O)N[C@H](C(=O)O)c4cc(O)cc(O)c4-c4cc3ccc4O)[C@H](O)c3ccc(c(Cl)c3)Oc3cc2cc(c3O[C@@H]2O[C@H](CO)[C@@H](O)[C@H](O)[C@H]2O[C@H]2C[C@](C)(N)[C@H](O)[C@H](C)O2)Oc2ccc(cc2Cl)[C@H]1O | – | USA300 LAC, female ICR mice, peritonitis, kidney | – | – | bacterial load | 5.39 log CFU and 6.02 log CFU and 3.37 log CFU and 5.09 log CFU and 4.58 log CFU |
| Cc1ccc(C[C@H](NC(=O)[C@@H](Cc2ccccc2)NC(=O)[C@@H](Cc2c[nH]c3ccccc23)NC(=O)[C@@H](N)CCCN)C(=O)N[C@H](Cc2ccccc2)C(=O)N[C@H](CCCN)C(N)=O)cc1 | bacterial growth | ATCC 29213 | – | – | IC50 | > 20 µg/mL |
| CC[C@H]1OC(=O)[C@H](C)[C@@H](O[C@H]2C[C@@](C)(OC)[C@@H](O)[C@H](C)O2)[C@H](C)[C@@H](O[C@@H]2O[C@H](C)C[C@H](N(C)C)[C@H]2O)[C@](C)(O)C[C@@H](C)/C(=N\OCOCCOC)[C@H](C)[C@@H](O)[C@]1(C)O | – | – | – | – | MIC50 | 4 µg/mL (≈ 4.78 µM) |
| CN[C@H](CC(C)C)C(=O)N[C@H]1C(=O)N[C@@H](CC(N)=O)C(=O)N[C@H]2C(=O)N[C@H]3C(=O)N[C@H](C(=O)N[C@H](C(=O)O)c4cc(O)cc(O)c4-c4cc3ccc4O)[C@H](O)c3ccc(c(Cl)c3)Oc3cc2cc(c3O[C@@H]2O[C@H](CO)[C@@H](O)[C@H](O)[C@H]2O[C@H]2C[C@](C)(N)[C@H](O)[C@H](C)O2)Oc2ccc(cc2Cl)[C@H]1O | – | 09057, female BALB/c mice, sepsis, lung | intraperitoneal, 20 mg/kg | – | log bacterial load | 5.61 log(CFU/g) and 5.45 log(CFU/g) and 6.31 log(CFU/g) and 6.72 log(CFU/g) and 5.54 log(CFU/g) and 5.57 log(CFU/g) |
| CNC(C)C1CCC(N)C(OC2C(N)CC(N)C(OC3OCC(C)(O)C(NC)C3O)C2O)O1 (stereo not shown) | – | CGMCC 1.9 | concentration not given, 18 h, 37 °C | – | inhibition zone diameter | 18 mm |
| C/C(=C\C(=O)OCCCCCCCCC(=O)O)C[C@@H]1OC[C@H](C[C@@H]2O[C@H]2[C@@H](C)[C@H](C)O)[C@@H](O)[C@H]1O | – | ATCC 43300 MRSA, C57BL/6 mouse skin wound infection | topical, 1 × MIC, 14 days | – | wound healing rate | 97.2% |

Repeated from above:
| SMILES | assay | test system | setting | how to read | measurement | result |
| --- | --- | --- | --- | --- | --- | --- |
| CN[C@H](CC(C)C)C(=O)N[C@H]1C(=O)N[C@@H](CC(N)=O)C(=O)N[C@H]2C(=O)N[C@H]3C(=O)N[C@H](C(=O)N[C@H](C(=O)O)c4cc(O)cc(O)c4-c4cc3ccc4O)[C@H](O)c3ccc(c(Cl)c3)Oc3cc2cc(c3O[C@@H]2O[C@H](CO)[C@@H](O)[C@H](O)[C@H]2O[C@H]2C[C@](C)(N)[C@H](O)[C@H](C)O2)Oc2ccc(cc2Cl)[C@H]1O | – | MSSA, 67 strains | – | – | MIC90 | 2 µg/mL (≈ 1.38 µM) |
| Cc1ccc(C[C@H](NC(=O)[C@@H](Cc2ccccc2)NC(=O)[C@@H](Cc2c[nH]c3ccccc23)NC(=O)[C@@H](N)CCCN)C(=O)N[C@H](Cc2ccccc2)C(=O)N[C@H](CCCCN)C(N)=O)cc1 | bacterial growth | ATCC 29213 | – | – | IC50 | > 20 µg/mL |
| CN[C@H](CC(C)C)C(=O)N[C@H]1C(=O)N[C@@H](CC(N)=O)C(=O)N[C@H]2C(=O)N[C@H]3C(=O)N[C@H](C(=O)N[C@H](C(=O)O)c4cc(O)cc(O)c4-c4cc3ccc4O)[C@H](O)c3ccc(c(Cl)c3)Oc3cc2cc(c3O[C@@H]2O[C@H](CO)[C@@H](O)[C@H](O)[C@H]2O[C@H]2C[C@](C)(N)[C@H](O)[C@H](C)O2)Oc2ccc(cc2Cl)[C@H]1O | – | ATCC 25904 | 20 h | – | MBC | 1.95 µg/mL |
